Experimental data pooled from the literature.
Protocols differ between the studies behind these lines. Values joined by “and” are separate records of one study, mostly repeats; a detail may differ. ± gives the spread as reported.
PIH1D1: PIH1D1 1-180 (Homo sapiens, UniProt Q9NWS0)
UniProt Q9NWS0, sequence (whole entry, unmodified, looked up): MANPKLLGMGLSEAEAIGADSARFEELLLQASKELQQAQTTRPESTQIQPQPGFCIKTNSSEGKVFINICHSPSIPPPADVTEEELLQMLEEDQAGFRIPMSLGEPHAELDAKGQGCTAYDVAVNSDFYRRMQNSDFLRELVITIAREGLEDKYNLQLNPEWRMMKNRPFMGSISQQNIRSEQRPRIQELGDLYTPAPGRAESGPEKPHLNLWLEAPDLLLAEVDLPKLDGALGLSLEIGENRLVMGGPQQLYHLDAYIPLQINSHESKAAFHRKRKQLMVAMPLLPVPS
SNX27 fragment: SNX27 fragment (Rattus norvegicus)
B1: ING1 163-234 Y180A (Arabidopsis thaliana, UniProt Q9LIQ6); sequence looked up; chain TSSNMDLDLPVDPNEPTACICNQVSFGEMVACDNNACKIEWFHFGCVGLKEQPKGKWYCPECATVKKSRKGR
B2: SEPTIN7 (Homo sapiens, UniProt Q16181); sequence looked up; chain MSVSARSAAAEERSVNSSTMVAQQKNLEGYVGFANLPNQVYRKSVKRGFEFTLMVVGESGLGKSTLINSLFLTDLYSPEYPGPSHRIKKTVQVEQSKVLIKEGGVQLLLTIVDTPGFGDAVDNSNCWQPVIDYIDSKFEDYLNAESRVNRRQMPDNRVQCCLYFIAPSGHGLKPLDIEFMKRLHEKVNIIPLIAKADTLTPEECQQFKKQIMKEIQEHKIKIYEFPETDDEEENKLVKKIKDRLPLAVVGSNTIIEVNGKRVRGRQYPWGVAEVENGEHCDFTILRNMLIRTHMQDLKDVTNNVHYENYRSRKLAAVTYNGVDNNKNKGQLTKSPLAQMEEERREHVAKMKKMEMEMEQVFEMKVKEKVQKLKDSEAELQRRHEQMKKNLEAQHKELEEKRRQFEDEKANWEAQQRILEQQNSSRTLEKNKKKGKIF
B3: SSR1 mature protein (Canis lupus familiaris, UniProt P16967); sequence looked up; chain GPGGSLVAAQDLTEDEETVEDSIIEDEDDEAEVEEDEPTDLAEDKEEEDVSGEPEASPSADTTILFVKGEDFPANNIVKFLVGFTNKGTEDFIVESLDASFRYPQDYQFYIQNFTALPLNTVVPPQRQATFEYSFIPAEPMGGRPFGLVINLNYKDLNGNVFQDAVFNQTVTIIEREDGLDGETIFMYMFLAGLGLLVVVGLHQLLESRKRKRPIQKVEMGTSSQNDVDMSWIPQETLNQINKASPRRLPRKRAQKRSVGSDE
B4: SEPTIN6 (Homo sapiens, UniProt Q14141); sequence looked up; chain MAATDIARQVGEGCRTVPLAGHVGFDSLPDQLVNKSVSQGFCFNILCVGETGLGKSTLMDTLFNTKFEGEPATHTQPGVQLQSNTYDLQESNVRLKLTIVSTVGFGDQINKEDSYKPIVEFIDAQFEAYLQEELKIRRVLHTYHDSRIHVCLYFIAPTGHSLKSLDLVTMKKLDSKVNIIPIIAKADAISKSELTKFKIKITSELVSNGVQIYQFPTDDESVAEINGTMNAHLPFAVIGSTEELKIGNKMMRARQYPWGTVQVENEAHCDFVKLREMLIRVNMEDLREQTHTRHYELYRRCKLEEMGFKDTDPDSKPFSLQETYEAKRNEFLGELQKKEEEMRQMFVQRVKEKEAELKEAEKELHEKFDRLKKLHQDEKKKLEDKKKSLDDEVNAFKQRKTAAELLQSQGSQAGGSQTLKRDKEKKNNPWLCTE
B5: ING2 189-262 E205A (Arabidopsis thaliana, UniProt B3H615); sequence looked up; chain NRKDLMPIEEQPIDPNAPTYCVCHQVSFGDMIACDNENCQGGEWFHYTCVGLTPETRFKGKWYCPTCRLLPQSH
B6: ING2 189-262 M219A (Arabidopsis thaliana, UniProt B3H615); sequence looked up; chain NRKDLMPIEEQPIDPNEPTYCVCHQVSFGDAIACDNENCQGGEWFHYTCVGLTPETRFKGKWYCPTCRLLPQSH
UniProt P20936, sequence (whole entry, unmodified, looked up): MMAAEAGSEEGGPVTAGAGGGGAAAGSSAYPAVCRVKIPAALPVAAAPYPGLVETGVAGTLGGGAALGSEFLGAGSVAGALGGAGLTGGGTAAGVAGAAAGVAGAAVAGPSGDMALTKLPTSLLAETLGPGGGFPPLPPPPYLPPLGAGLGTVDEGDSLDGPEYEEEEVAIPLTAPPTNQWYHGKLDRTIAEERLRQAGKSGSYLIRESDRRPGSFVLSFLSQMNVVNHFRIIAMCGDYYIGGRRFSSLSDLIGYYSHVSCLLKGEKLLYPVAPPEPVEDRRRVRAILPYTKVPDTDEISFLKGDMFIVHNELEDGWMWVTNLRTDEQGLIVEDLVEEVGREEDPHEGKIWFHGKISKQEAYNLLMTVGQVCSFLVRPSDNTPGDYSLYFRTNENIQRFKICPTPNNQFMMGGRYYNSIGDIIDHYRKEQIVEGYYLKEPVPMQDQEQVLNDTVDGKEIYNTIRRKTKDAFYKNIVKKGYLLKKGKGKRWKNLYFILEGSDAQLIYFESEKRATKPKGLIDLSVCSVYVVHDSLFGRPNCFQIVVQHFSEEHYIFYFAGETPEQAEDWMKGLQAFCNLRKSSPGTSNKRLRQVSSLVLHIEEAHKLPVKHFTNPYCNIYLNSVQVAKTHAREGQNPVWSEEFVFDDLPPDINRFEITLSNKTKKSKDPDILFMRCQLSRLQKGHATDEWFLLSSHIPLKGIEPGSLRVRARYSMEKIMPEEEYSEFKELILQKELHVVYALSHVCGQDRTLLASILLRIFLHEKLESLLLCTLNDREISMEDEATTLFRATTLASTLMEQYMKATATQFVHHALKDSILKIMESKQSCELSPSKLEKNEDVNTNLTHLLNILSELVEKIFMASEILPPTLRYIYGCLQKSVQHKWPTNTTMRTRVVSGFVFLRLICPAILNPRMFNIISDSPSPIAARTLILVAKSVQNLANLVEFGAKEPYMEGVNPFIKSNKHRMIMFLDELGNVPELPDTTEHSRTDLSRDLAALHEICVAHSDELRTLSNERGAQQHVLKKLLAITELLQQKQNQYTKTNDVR
UniProt Q64663, sequence (whole entry, unmodified, looked up): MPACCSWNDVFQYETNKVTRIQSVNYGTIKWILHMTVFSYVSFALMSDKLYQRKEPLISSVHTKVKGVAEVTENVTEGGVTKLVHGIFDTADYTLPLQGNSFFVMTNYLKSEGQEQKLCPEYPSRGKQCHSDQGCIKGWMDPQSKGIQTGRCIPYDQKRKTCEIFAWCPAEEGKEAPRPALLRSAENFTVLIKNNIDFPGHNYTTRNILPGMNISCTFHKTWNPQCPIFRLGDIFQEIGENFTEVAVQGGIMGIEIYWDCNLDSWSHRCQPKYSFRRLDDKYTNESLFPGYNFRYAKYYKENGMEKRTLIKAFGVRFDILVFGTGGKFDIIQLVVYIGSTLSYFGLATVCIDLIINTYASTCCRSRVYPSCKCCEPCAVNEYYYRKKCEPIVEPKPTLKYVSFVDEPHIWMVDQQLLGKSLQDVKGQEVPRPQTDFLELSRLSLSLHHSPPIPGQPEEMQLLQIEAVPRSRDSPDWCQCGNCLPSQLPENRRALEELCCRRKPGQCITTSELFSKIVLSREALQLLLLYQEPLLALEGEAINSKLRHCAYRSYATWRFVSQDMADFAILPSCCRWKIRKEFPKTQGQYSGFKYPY
UniProt Q6ZJM9, sequence (whole entry, looked up): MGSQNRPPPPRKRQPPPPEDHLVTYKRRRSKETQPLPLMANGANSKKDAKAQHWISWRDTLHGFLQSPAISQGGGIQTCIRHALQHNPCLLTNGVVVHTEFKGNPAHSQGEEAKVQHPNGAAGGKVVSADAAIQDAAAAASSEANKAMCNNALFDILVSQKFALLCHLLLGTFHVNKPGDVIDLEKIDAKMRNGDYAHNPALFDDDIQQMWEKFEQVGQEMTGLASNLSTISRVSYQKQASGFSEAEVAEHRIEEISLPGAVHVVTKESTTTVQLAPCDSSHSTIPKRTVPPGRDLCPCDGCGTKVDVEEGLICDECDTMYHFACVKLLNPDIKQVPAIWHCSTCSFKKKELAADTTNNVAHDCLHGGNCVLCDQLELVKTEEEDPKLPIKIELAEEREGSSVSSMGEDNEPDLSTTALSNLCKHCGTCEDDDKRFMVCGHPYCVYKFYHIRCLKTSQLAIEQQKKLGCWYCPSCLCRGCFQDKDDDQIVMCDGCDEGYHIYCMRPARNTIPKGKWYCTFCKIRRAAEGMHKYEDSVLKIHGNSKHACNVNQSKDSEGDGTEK
UniProt Q9ZU93, sequence (whole entry, looked up): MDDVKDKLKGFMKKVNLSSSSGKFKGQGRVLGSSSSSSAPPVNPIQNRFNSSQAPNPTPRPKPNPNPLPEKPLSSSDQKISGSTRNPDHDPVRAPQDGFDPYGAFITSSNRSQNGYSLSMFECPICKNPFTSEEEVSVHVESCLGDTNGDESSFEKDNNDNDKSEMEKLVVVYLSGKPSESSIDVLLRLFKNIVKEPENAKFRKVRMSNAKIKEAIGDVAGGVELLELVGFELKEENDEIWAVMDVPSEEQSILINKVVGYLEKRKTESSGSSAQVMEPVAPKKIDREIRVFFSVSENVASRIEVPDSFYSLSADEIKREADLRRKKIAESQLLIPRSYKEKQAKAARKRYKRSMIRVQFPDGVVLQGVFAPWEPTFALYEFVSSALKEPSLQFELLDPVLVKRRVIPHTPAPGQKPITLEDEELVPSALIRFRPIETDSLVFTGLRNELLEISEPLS
UniProt Q9SUG6, sequence (whole entry, looked up): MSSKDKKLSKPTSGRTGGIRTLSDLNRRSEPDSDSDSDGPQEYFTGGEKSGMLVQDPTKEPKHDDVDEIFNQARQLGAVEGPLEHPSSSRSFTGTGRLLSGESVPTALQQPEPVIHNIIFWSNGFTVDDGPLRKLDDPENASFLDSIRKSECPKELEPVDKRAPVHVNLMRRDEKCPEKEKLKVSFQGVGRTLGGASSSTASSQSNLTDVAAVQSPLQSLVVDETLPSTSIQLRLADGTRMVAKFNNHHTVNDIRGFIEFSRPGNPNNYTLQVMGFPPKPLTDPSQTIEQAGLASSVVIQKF
UniProt O95619, sequence (whole entry, looked up): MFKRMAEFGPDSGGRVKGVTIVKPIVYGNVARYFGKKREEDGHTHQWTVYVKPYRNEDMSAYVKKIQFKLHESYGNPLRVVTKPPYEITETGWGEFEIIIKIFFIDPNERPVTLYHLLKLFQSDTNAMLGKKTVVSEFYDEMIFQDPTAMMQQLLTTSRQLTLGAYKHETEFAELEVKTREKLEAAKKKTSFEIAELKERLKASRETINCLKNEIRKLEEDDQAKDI
UniProt Q8IXI2, sequence (whole entry, looked up): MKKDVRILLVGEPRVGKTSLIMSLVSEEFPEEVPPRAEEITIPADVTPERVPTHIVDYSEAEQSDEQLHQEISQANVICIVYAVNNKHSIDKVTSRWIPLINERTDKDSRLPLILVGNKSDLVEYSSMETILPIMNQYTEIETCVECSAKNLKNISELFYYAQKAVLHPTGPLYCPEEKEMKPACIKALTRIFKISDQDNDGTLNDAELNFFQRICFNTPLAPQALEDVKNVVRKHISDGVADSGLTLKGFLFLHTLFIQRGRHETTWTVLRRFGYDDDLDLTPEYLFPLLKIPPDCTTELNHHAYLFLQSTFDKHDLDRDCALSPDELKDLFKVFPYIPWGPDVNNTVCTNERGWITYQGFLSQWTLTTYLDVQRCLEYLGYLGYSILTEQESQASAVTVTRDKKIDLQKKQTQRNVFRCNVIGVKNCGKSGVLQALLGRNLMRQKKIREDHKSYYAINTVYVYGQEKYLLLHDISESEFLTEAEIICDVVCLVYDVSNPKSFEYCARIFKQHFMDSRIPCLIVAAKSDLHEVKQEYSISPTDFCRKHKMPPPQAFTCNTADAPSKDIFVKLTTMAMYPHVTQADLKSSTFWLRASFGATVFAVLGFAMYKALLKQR
UniProt P84090, sequence (whole entry, unmodified, looked up): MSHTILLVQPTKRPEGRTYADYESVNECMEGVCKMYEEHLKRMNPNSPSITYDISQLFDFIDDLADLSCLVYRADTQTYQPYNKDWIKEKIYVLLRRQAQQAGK
UniProt P23438, sequence (whole entry, looked up): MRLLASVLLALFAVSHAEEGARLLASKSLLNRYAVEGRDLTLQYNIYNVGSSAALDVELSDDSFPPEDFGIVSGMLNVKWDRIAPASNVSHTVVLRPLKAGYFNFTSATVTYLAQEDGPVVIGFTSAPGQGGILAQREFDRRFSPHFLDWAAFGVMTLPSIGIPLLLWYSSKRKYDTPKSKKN

YAGSDSDLDSDDEFVPY (TELO2 483-497 (Homo sapiens); pS491)  molecule per partner (PIH1D1; ITC; peptide): 0.8
B1 (ING1 163-234 Y180A)  molecule per partner (histone H3 1-10, K4me3; ITC): 1.12 ± 0.01
EGF mature  molecule per partner (EGFR Fc fusion fragment (Homo sapiens); ITC): 0.73 ± 0.0016 sites
B2 (SEPTIN7)  molecule per partner (SEPTIN6 (Homo sapiens, UniProt Q14141); co-sedimentation): 1
FNA / CGLSGLGVA-NH2 ([18F]FNA-labelled, C-amide)  tissue uptake (ex vivo gamma counting; peptide, glioblastoma mouse model, spleen; 60 min post injection, together with: 500-fold excess CooP blocking): 0.37 %ID/g
DLDSDDEY (TELO2 488-494 (Homo sapiens); pS491)  molecule per partner (PIH1D1 51-180 K113A (Homo sapiens, UniProt Q9NWS0); ITC; peptide): 0.7
FGA (Homo sapiens, UniProt P02671)  cross-linked residues (KLC4 (Homo sapiens, UniProt Q9NSK0); cross-linking MS; together with: DSSO): K575 to K327
GKAPRKQLAT (histone H3 peptide 14-23 (UniProt P68431); K18ac; sequence looked up)  molecule per partner (YEATS4 19-159 (Homo sapiens, UniProt O95619); ITC; peptide): 1
ARTKQTARKSTG (histone H3 peptide 1-12; K4me1)  molecule per partner (Ehd3 417-547 (Oryza sativa, UniProt Q6ZJM9); ITC; peptide): 1.1
Polymyxin B  log2 fold change (untargeted LC-MS metabolomics, measured: N-formimino-L-glutamate; Sprague-Dawley rat, right cerebral cortex; intracerebroventricular, 0.75 mg/kg, 1 h; baseline: NaCl control): -3.5
B3 (SSR1 mature protein)  molecule per partner (SSR2 mature, two N-linked glycans (Canis lupus familiaris, UniProt P23438); UV absorption of separated subunits): 1 molar ratio
GRIN2A fragment (sequence not shown)  molecule per partner (SNX27 fragment; ITC): 1.2
Peginesatide  phosphorylation level (UT7/EPO; tyrosine phosphorylation, LC-MS/MS phosphoproteomics, GluC, measured: JAK2 tyrosine 570; 10 nM, 15 min, together with: 10 U/mL EPO; baseline: vehicle): 9.8 fold
PRKN full length, unphosphorylated (Homo sapiens, UniProt O60260)  molecule per partner (RHOT1 181-579 (Homo sapiens, UniProt Q8IXI2); cross-linking): 1
DPSDYAEPMDAVVKPRNEEENIYSVPHDS (ARHGAP35 residues 1083-1111; pY1087/pY1105, N-acetyl, C-amide)  molecule per partner (RASA1 174-444 C236S/C261S/C372S/C402S/R194C (Homo sapiens, UniProt P20936); ITC; peptide): 0.972 and 1.04 and 0.981 and 0.897
SQAPARPPKPRPRRTAY (Cbl-b residues 899-915)  molecule per partner (SH3KBP1 1-58 (Homo sapiens, UniProt Q96B97); ITC; peptide; 25 °C): 0.9 ± 0.2
YAGSDSDLDSDDEFVPY (TELO2 483-497 (Homo sapiens); pS487)  molecule per partner (PIH1D1; ITC; peptide): 0.9
B4 (SEPTIN6)  molecule per partner (Septin2 (Mus musculus, UniProt P42208); co-sedimentation): 1
ING2 PHD finger (Arabidopsis thaliana)  molecule per partner (H3 residues 1-10, K4me1; ITC): 0.86 ± 0.03
TERLVLRLNRKKKKVSWKDGTVDNE (INH3 27-51 (Arabidopsis thaliana, UniProt Q8S8F7))  molecule per partner (PUX3 (Arabidopsis thaliana, UniProt Q9SUG6); ITC; peptide): 1.2 ± 0.1
colistin  MIC (Salmonella enterica serovar Typhimurium; broth microdilution; clinical isolate RKI-No 437/14): ≤ 0.5 µg/mL
FGB (Homo sapiens, UniProt P02675)  cross-linked residues (TWNK (Homo sapiens, UniProt Q96RR1); cross-linking MS; together with: DSSO): K374 to K607
BzATP  normalized current (P2X purinoceptor 7 (P2rx7, Rattus norvegicus, UniProt Q64663, I214A/Q143A); ion current, agonist, two-electrode voltage clamp; Xenopus oocytes; 300 µM): 0.93 and 0.96 and 0.99
GRIN2A fragment S1459E (sequence not shown)  molecule per partner (SNX27 fragment; ITC): 0.9
SAAAAGDDDDLYN (CDC48A 797-809 (Arabidopsis thaliana))  molecule per partner (PUX2 157-273 (Arabidopsis thaliana, UniProt Q9ZU93); ITC; peptide; 25 °C): 1.2 ± 0.1
B5 (ING2 189-262 E205A)  molecule per partner (histone H3 1-10, K4me3; ITC): 1.17 ± 0.02
caspofungin  bilirubin (adult ICU patients, mITT, serum; dose not given, day 14): 17.9 µmol/L
ING1 PHD finger (Arabidopsis thaliana)  molecule per partner (H3 residues 1-10, K4me2; ITC): 1.02 ± 0.01
11-deoxycorticosterone  rate constant k1 (CYP11B2 (human); substrate binding, stopped-flow global kinetic fitting; purified enzyme; 3-state conformational selection model, together with: no adrenodoxin): 0.58 ± 0.0846 s⁻¹
B6 (ING2 189-262 M219A)  molecule per partner (histone H3 1-10, K4me3; ITC): 0.97 ± 0.11
ASCC3 C-degron  molecule per partner (APPBP2/ELOB/ELOC C54A/H89A (Homo sapiens); ITC): 0.76
PRTARHAPAVRKFSPDLKLLKDVKISVSFTE (DGCR8(96-126), SUMO-tagged)  ΔH (Enhancer of rudimentary homolog (Homo sapiens, UniProt P84090, F60A); DGCR8 peptide binding, ITC; peptide; 293 K): -3.01 ± 0.447 kcal/mol
EERIFRRTGGLFGQVD (CACNA1S residues 1594-1609 (Oryctolagus cuniculus))  molecule per partner (JPH1 1-442 (Homo sapiens, UniProt Q9HDC5); ITC; peptide): 0.9 ± 0.1

Repeated from above:
FGA (Homo sapiens, UniProt P02671)  cross-linked residues (KLC4 (Homo sapiens, UniProt Q9NSK0); cross-linking MS; together with: DSSO): K575 to K327
GKAPRKQLAT (histone H3 peptide 14-23 (UniProt P68431); K18ac; sequence looked up)  molecule per partner (YEATS4 19-159 (Homo sapiens, UniProt O95619); ITC; peptide): 1
ARTKQTARKSTG (histone H3 peptide 1-12; K4me1)  molecule per partner (Ehd3 417-547 (Oryza sativa, UniProt Q6ZJM9); ITC; peptide): 1.1
